# Assay results gathered from unrelated publications.
# Amino acid sequences for entries named in this document (tags omitted).
# UniProt P22612, whole entry: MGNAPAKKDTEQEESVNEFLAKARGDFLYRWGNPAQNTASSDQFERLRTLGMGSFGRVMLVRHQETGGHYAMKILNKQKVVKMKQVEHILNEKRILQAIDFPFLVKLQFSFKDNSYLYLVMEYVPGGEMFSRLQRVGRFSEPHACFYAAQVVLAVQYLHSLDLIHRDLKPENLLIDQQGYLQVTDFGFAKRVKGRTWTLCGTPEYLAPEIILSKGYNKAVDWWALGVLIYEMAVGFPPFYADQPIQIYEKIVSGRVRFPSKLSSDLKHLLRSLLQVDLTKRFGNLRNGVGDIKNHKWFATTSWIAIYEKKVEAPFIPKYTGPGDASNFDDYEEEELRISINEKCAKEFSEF
# UniProt Q59H18, whole entry: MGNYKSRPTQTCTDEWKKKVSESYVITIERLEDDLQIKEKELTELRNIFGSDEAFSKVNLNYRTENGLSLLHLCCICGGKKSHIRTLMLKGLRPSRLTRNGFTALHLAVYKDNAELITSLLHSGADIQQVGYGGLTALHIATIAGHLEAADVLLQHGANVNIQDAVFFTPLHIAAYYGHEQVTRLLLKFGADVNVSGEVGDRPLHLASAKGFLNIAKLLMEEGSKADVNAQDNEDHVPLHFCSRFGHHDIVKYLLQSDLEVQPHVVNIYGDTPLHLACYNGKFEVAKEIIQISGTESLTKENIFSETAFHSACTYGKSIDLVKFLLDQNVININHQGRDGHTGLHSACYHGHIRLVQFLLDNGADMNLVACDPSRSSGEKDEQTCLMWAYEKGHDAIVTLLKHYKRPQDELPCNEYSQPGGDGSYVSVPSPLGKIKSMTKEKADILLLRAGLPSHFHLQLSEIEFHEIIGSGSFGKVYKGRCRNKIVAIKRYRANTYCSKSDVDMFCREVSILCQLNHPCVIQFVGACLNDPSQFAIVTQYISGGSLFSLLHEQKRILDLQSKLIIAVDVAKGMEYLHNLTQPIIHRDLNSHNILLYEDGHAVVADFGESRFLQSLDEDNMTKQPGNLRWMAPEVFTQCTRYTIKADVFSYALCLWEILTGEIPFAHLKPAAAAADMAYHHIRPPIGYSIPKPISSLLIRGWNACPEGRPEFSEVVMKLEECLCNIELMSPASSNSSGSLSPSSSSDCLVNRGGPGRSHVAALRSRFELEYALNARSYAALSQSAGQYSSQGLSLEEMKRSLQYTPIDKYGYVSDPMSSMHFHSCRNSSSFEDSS
# UniProt P36894, whole entry, looked up: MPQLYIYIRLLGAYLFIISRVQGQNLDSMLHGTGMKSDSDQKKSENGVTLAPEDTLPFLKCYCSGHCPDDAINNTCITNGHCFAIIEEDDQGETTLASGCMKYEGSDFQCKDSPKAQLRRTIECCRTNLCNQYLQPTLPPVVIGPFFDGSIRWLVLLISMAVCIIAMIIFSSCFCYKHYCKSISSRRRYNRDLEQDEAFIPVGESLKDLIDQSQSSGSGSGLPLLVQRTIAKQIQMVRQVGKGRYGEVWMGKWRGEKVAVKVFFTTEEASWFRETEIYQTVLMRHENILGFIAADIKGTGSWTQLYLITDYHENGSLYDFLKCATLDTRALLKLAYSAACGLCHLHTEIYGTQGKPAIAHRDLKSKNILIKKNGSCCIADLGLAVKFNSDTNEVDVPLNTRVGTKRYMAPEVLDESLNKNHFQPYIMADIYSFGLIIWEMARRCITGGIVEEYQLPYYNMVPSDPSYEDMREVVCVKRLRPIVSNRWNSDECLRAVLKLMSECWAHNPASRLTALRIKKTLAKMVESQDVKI
# UniProt P04150, whole entry: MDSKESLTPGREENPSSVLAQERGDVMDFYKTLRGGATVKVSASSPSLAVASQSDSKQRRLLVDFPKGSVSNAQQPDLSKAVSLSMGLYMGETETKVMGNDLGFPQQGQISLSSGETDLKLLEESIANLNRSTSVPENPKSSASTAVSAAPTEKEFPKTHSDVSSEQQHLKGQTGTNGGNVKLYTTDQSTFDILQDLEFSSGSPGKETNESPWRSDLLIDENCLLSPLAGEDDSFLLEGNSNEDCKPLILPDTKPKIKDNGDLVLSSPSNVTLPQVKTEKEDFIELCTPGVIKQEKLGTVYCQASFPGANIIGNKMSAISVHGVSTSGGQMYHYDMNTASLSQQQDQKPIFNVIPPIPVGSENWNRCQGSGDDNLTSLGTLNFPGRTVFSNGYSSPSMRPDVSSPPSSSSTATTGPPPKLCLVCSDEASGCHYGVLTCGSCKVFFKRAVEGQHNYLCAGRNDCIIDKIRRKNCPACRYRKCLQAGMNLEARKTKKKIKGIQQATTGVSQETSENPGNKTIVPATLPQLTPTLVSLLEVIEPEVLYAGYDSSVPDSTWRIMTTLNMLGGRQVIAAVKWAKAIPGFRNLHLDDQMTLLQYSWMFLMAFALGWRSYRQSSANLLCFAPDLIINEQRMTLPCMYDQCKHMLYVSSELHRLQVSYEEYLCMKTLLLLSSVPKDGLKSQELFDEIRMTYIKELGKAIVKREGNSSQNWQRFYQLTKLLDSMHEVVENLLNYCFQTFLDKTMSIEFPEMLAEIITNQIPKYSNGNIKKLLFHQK
# Each numbered part is a random draw from the data of one study; scales do not carry over between parts.

# Sample 1
# Structure (SMILES): CCN1CCN(Cc2ccc(NC(=O)c3ccc(C)c(/C=C/c4cnc5[nH]ccc5c4OC)c3)cc2C(F)(F)F)CC1
# Mode: inhibitor
# Method: cell-based kinome screen
# Tested at: 5 µM
target,test,test system,how to read,log2 fold change
"PRKACG (Homo sapiens, UniProt P22612)",kinase activity,,reference: vehicle,0.518
"Serine/threonine-protein kinase TNNI3K, with CDC37 (TNNI3K, Homo sapiens, UniProt Q59H18)",,,reference: vehicle,-0.883
"Tyrosine-protein kinase Fgr, with CDC37 (FGR, Homo sapiens, UniProt P09769)",,human cells,reference: untreated,0.082
"Bone morphogenetic protein receptor type-1A, with CDC37 (BMPR1A, Homo sapiens, UniProt P36894)",,,reference: no inhibitor,0.267

# Other studies, line by line
# NR3C1: Glucocorticoid receptor (NR3C1, Homo sapiens, UniProt P04150)
SMILES,target or system,test,test system,conditions,how to read,quantity,value
C[C@@]12CC[C@H](O[C@@H]3O[C@H](CO)[C@@H](O)[C@H](O)[C@@H]3O)C[C@@H]1CC[C@H]1[C@H]2CC[C@@]2(C)[C@@H](C3=CCOC3=O)CC[C@]12O,NR3C1,"nuclear translocation, agonist, enzyme fragment complementation",,,,EC50,> 9 µM
COc1cc(CC(=O)NCC(NC(=O)C(CCCNC(=O)c2cccc(I)c2)NC(=O)C(Cc2ccc(C(F)(F)P(=O)(O)O)cc2)NC(=O)c2ccc(C)c(Br)c2)C(N)=O)ccc1O (centres unmarked),primary mouse hepatocytes,Western blot,,"200 nM, added: insulin 5 nM, 5 min",reference: insulin alone,Foxo1 Ser253 phosphorylation,2.9 fold
CC(=O)[C@H]1CC[C@@H]2[C@]1(C)CC=C1[C@@]23C=C[C@]2(C[C@H](O)CC[C@@]12C)[C@H](C(=O)O)[C@@H]3C(=O)O,NR3C1,"nuclear translocation, agonist, enzyme fragment complementation",,,,EC50,> 9 µM
CC#C/C(=N\OC[C@H]1COCCN1)c1ccc2ncnc(Nc3ccc(OCc4cccc(F)c4)c(Cl)c3)c2c1,,tumour growth,"NCI-H292, nude mouse subcutaneous xenograft","oral, 21 days daily",,ED50,30.1 mg/kg

# Repeated from above (sample 1):
target,test,test system,how to read,log2 fold change
"PRKACG (Homo sapiens, UniProt P22612)",kinase activity,,reference: vehicle,0.518
